Published values collected from several papers.
± marks the error that the study gave.

SMILES | assay | system | setting | measurement | value
CC[C@H](C)[C@H](NC(=O)[C@H](CN)NC(=O)[C@H](CCCCN)NC(=O)[C@H](CC(C)C)NC(=O)[C@H](CC(C)C)NC(=O)CNC(C)=O)C(=O)N[C@@H](CCCCN)C(=O)N[C@H](C(=O)N[C@@H](CCN)C(=O)N[C@@H](CC(C)C)C(N)=O)[C@@H](C)O | circular dichroism | water | 66 µM | helicity | 0%
NC[C@]1(CC(=O)O)CC[C@@H]([18F])CC1 | PET | rhesus monkey, brain | intravenous, 180 min, baseline scan | SUV | 0.28
Oc1ccc2c3c1OC1C(O)C=CC4C(C2)N(CC2CCC2)CCC341 (stereo not shown) |  |  | phenolate protonated | log k amino protonation | 8.75
O=C1NC2(CC2)COc2ncc(F)cc2[C@H]2COCCN2c2ccn3ncc1c3n2 |  | Sprague-Dawley rat, female, spleen | oral, 10 mg/kg/day, 4 weeks | organ weight | 1.14 ± 0.224 g
[2H]c1nc([2H])c(-c2nc([2H])n3c2C([2H])([2H])N=C(c2ccccn2)c2cc(C#C)ccc2-3)o1 |  | Sprague Dawley rat, plasma | oral, 2 mg/kg, cassette dosing | Tmax | ~1 h
CN1CC[C@]23c4c5ccc(O)c4O[C@H]2[C@H](O)C=C[C@H]3[C@H]1C5 |  |  |  | log k amino protonation | 9.03
Cc1sc2c(c1C)C(c1ccc(Cl)cc1)=N[C@@H](CC(=O)OC(C)(C)C)c1nnc(C)n1-2 |  | CD1 mouse, male, plasma | oral, 10 mg/kg | AUC(0-t) | 2040 ng·h/mL
COc1ccc(-n2cc(C(=O)N3C[C@]4(OC(=O)c5ccccc5NC(C)=O)CC[C@H](OC)[C@@]56[C@@H]4C[C@@H]([C@@H]35)[C@@]3(O)C[C@H](OC)[C@H]4C[C@@H]6[C@]3(O)[C@H]4OC)nn2)cc1 |  | Sprague-Dawley rat, plasma | intravenous, 2 mg/kg, 15 min | concentration | 40.2 ng/mL
O=C1CC[C@@]2(O)[C@H]3Cc4ccc(O)c5c4[C@@]2(CCN3CC2CCC2)[C@H]1O5 |  |  |  | log k amino protonation | 9.55
O=C(c1cncc2cc[nH]c12)N1CCC(=C2c3ccccc3CS(=O)(=O)c3ccccc32)CC1 |  | mouse | oral, 50 mg/kg | AUC(0-inf) | 7640 ng·h/mL
